Experimental data pooled from the literature.
A part holds a random share of what one study measured. Positions count from the first letter of the parent shown.

Set 1
Target: CCNA2, cyclin fold, Cln2 fusion (human)
Method: yeast growth competition, sequencing
Medium: yeast
Setting: weak parent motif
Baseline: not given
Reading: higher = stronger binding
Quantity: normalised enrichment score
Parent: E2F8 docking peptide (human); FVPQRKLEVSTED
F1A: 0.582
V9A: 0.244
R5K V9L: -0.0103
K6A: -0.437
V9L: 0.0279
S10A: 0.328
E8A: -0.13
V2A: 0.0321

Set 2
Target: Histone acetyltransferase KAT6A, winged helix 1, GST fusion (KAT6A, Homo sapiens, UniProt Q92794, residues 1-85)
Method: protein binding microarray
Molecule type: double-stranded DNA, one strand shown
Medium: in vitro
Concentration: not given
Setting: 8-mer, flanks averaged, mean of 2 arrays, mostly near background
Baseline: not given
Reading: higher = stronger binding
Quantity: E-score
Construct (chain): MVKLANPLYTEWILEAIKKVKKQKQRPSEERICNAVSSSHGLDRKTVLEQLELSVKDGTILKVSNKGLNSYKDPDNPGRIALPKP
CCGCGTAC: 0.319
CACCTATA: -0.117
GTGTCAAC: -0.124
ACCCTCAC: -0.23
AATATAAT: 0.00181
ACCACGGC: 0.169
AAGGTCAA: -0.0615
CTAGTTAA: -0.1
AAGTGAGA: -0.0928
ATGTTAAG: -0.127
TCGCAAAA: 0.0486
ATTGGTGG: -0.26
CTTTTCCA: -0.15
GCACCTCC: 0.061
GGGGACCA: -0.0585
AAAGGTTC: -0.227
CGCGCGGC: 0.463
CACTCTTA: -0.243
CACTACCG: 0.199
GCATTCGA: 0.0241
TGATCGCA: 0.0798
CCGACACA: 0.00286
CAGCTCGC: -0.0612
TATGTTAA: -0.161
ACATCATA: -0.102

Set 3
Target: Sal-like protein 4, full length isoform A (SALL4, Homo sapiens, UniProt Q9UJQ4, residues 1-1053)
Sequence of UniProt Q9UJQ4 (whole entry, looked up): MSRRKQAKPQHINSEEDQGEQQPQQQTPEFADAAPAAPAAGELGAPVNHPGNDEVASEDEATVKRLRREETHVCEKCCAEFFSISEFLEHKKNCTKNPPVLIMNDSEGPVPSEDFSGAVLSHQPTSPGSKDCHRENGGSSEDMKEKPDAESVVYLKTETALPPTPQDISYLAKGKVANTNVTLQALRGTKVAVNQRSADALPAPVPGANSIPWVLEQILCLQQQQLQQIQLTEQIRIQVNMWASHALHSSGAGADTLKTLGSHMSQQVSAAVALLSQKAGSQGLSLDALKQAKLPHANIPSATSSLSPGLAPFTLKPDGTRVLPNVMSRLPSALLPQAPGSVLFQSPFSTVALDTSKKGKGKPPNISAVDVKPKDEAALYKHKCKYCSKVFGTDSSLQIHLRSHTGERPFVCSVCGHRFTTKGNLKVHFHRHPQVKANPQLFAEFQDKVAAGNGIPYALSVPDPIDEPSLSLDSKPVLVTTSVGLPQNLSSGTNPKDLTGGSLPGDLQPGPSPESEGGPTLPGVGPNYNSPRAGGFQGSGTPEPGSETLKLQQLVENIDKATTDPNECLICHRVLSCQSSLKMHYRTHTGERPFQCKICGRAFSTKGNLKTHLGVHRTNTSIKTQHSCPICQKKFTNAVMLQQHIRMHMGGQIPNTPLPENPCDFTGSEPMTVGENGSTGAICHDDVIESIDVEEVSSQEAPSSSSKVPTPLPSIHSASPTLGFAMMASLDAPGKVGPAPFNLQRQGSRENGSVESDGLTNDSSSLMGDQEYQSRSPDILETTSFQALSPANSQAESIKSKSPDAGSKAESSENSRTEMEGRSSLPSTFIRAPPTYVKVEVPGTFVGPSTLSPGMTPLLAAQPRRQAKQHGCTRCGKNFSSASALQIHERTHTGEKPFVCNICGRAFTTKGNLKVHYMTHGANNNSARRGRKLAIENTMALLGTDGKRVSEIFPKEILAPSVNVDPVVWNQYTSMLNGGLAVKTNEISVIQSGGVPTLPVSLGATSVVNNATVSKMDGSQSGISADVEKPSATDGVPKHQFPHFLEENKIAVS
Method: universal PBM
Molecule type: double-stranded DNA, one strand shown
Medium: in vitro
Concentration: 600 nM
Setting: 8-mer, flanks averaged, mean of replicates
Reading: higher = stronger binding
Quantity: E-score
GGTTAATA: 0.282
AACGTTGC: 0.0579
AATGTCTC: -0.0195
AGATGTTG: -0.0723
CGGTGGTA: -0.193
GCGGATAC: 0.0247
AGTCAATG: 0.0731
ATCTAGGG: 0.145
AGGCAGCC: -0.275
CTCTACCC: -0.142
CGCTACCG: -0.166
AACCCACG: -0.163
AACTCTCA: 0.12
CCGTTGAC: -0.185
AGCGATCC: -0.167
AATACACC: 0.179
GGCTACGA: -0.138
CAGCTGGG: -0.353
CAAGCCGG: -0.244
GGCGTCAC: -0.226
CGTGCAAG: -0.0994
CTAGTACA: 0.12

Set 4
Target: Interferon regulatory factor 7, full length, phosphomimetic (IRF7, Homo sapiens, UniProt Q92985, residues 1-503, S471D/S472D/S475D/S476D/S477D/S483D/S484D/S487D)
Method: protein-binding microarray
Molecule type: double-stranded DNA, one strand shown
Medium: in vitro
Concentration: 2200 nM top
Setting: 60-bp whole probe
Added: salmon DNA 0.4 mg/ml
Baseline: random background probes
Reading: higher = stronger binding
Quantity: fitted relative affinity
All sequences stand within: GCCTAGCAC … GTCTTGATTCGCTTGACGCTGCTG
Residues (chain): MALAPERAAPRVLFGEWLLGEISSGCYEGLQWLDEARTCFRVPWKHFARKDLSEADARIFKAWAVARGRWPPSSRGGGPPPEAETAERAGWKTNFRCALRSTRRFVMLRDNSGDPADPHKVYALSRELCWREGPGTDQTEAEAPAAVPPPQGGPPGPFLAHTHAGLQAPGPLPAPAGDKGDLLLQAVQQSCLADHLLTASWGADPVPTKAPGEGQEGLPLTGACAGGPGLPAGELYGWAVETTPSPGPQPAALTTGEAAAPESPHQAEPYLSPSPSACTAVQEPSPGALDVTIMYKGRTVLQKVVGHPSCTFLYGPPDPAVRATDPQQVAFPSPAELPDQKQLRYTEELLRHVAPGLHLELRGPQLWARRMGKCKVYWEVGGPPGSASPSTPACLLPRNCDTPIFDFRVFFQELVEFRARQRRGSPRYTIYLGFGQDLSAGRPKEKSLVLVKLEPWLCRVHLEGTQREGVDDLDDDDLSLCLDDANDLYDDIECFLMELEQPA
GACGGTATCGACATTCGGGACGTGCTA: 0.484 z-score
GACGATTCCGGGTTTCGAGACGTGCTA: 2.51 z-score
GACGGACTGGGGATCGGGACGTGCTAG: -0.919 z-score
GACGATAACAGTATCGAGACGTGCTAG: 0.101 z-score
GACGATATCGGGACTGAAGACGTGCTA: -0.209 z-score
AGCAGTTTCTCAACCACTTTGTGCTAG: 0.723 z-score
GACTGTCTCGGTTTCGGGACGTGCTAG: 3.73 z-score
TCAATGATCTTCCTTCATACTGTGCTA: 0.933 z-score
TCAATATCCATTATAGAACTGTGCTAG: 0.649 z-score
TTAGGTATCGGATTCGGTTAGTGCTAG: 2.06 z-score
GACGGTATCAACACTGGGGACGTGCTA: -0.171 z-score
GACGGTCTCCGTATCGGGACGTGCTAG: -0.0156 z-score
TTAGAACTGAGTATCGATGAGTGCTAG: -0.57 z-score
GACGATTTCGGGGATCGAGACGTGCTA: 1.17 z-score
ACAAATGGCCAACAAACATTGTGCTAG: -0.228 z-score
GTAGGTCTCCTACTGCTTTAGTGCTAG: 0.23 z-score
GACGGACTGGGTCTCGTGACGTGCTAG: -0.722 z-score
GTCGGTATCGACACTGGGGACGTGCTA: 0.0401 z-score

Set 5
Target: Fragile X messenger ribonucleoprotein 1, C-terminal low-complexity region (Fmr1, Mus musculus, UniProt P35922)
Method: RNA Bind-n-Seq
Molecule type: RNA
Medium: in vitro
Concentration: 200 nM
Setting: whole 134-nt RNA, ends assumed
Added: 150 mM KCl
Baseline: input library
Reading: higher = stronger binding
Quantity: log2 enrichment
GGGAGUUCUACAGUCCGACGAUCUCUUCCGUGACAUUUCAUUUGGGGAACAACUUUUCUCUUUACAGGCCCGAGUGACUAAGGGAUGUACCAUUGUUAAGCCUUUCAACCUGUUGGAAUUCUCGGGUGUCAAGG: 0.928
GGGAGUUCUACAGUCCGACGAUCGUCCUGUGCUACACAUCGUAUGUACCGAAUCGGGGUUUUUGGGGAGGGGUUUUUGGGGAAAGUAUUAUGUUACGCCGUUCGGAUCUGCACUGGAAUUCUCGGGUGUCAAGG: 0.606
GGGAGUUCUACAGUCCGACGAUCGCAGGAAGUAAAAACAAAUGGAAAUGCUUCGGAUGGUGGCAGGGGUGGGGGUUGCUAAGGAAAGGGUGGGAUGGGAGUGGGUAAAGAGUUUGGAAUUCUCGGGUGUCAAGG: 0.762
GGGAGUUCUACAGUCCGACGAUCUAACUUUAGAGGAGGAUCUGAUGGAUAUGGCAGUGGACGUGGAUUUCGGGAUGGCUAUAAUGGGUAUGGAGGAGGACCUGGAGGUGGCAAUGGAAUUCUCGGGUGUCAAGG: 0.179
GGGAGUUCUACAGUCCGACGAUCAAGUCCUGUGCUACACAUCGUAUGUACCGAAUCGGGUUUUGGUUUUGGUUUUGGGGAAAGUAUUAUGUUACGCCGUUCGGAUCUGCACUUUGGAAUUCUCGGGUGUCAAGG: -0.614
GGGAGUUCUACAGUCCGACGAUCGUCCUGUGCUACACAUCGUAUGUACCGAAUCGGGGAAAAAGGGGAAAAAGGGAAAAAGGAAAGUAUUAUGUUACGCCGUUCGGAUCUGCAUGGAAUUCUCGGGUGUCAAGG: -0.111
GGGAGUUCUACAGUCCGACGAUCUGCCAAAGUAUGGCAAGAAAUUGCUCCUGGAAAUACUGAUGCCACCCCAGUAACUCAUGGAACUGAAAGCUCUUGGCAUGAAAUAGCAGCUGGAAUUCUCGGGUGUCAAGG: 0.436
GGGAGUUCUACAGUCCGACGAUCUCAAGUCCUGUGCUACACAUCGUAUGUACCGAAUCGGUUUUUUUGGUGGUUUGGAAAGUAUUAUGUUACGCCGUUCGGAUCUGCACUUCCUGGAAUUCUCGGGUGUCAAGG: -0.716
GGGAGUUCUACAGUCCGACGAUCUGUGUCUUGCUGAAUCAGGGCUCUCUUAUCCCUGCCAUCGACUUACAGUGGGAAGAAGAUCUUCACCUGCACAGACCCGGGAACAGUCGGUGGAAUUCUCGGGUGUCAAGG: -0.311
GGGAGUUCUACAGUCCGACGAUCACCACGCAGGUGGGCAUCUUUGGGAAGUGGGGCAAGGGGGGGAUAGGGAGGGGGGUAACACUUUGGGAACAGGUGGUCCCAGGUCGUUUCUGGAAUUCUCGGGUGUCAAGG: 0.634

Some of these lines once more (set 4):
TCAATATCCATTATAGAACTGTGCTAG: 0.649 z-score
TTAGAACTGAGTATCGATGAGTGCTAG: -0.57 z-score
GTAGGTCTCCTACTGCTTTAGTGCTAG: 0.23 z-score
TTAGGTATCGGATTCGGTTAGTGCTAG: 2.06 z-score
ACAAATGGCCAACAAACATTGTGCTAG: -0.228 z-score
